Assay results of several laboratories.
Every numbered part comes from another study and shows a few of its results, in no order. Changes are numbered by the printed parent chain.
Chain of UniProt Q04759 (whole entry, looked up): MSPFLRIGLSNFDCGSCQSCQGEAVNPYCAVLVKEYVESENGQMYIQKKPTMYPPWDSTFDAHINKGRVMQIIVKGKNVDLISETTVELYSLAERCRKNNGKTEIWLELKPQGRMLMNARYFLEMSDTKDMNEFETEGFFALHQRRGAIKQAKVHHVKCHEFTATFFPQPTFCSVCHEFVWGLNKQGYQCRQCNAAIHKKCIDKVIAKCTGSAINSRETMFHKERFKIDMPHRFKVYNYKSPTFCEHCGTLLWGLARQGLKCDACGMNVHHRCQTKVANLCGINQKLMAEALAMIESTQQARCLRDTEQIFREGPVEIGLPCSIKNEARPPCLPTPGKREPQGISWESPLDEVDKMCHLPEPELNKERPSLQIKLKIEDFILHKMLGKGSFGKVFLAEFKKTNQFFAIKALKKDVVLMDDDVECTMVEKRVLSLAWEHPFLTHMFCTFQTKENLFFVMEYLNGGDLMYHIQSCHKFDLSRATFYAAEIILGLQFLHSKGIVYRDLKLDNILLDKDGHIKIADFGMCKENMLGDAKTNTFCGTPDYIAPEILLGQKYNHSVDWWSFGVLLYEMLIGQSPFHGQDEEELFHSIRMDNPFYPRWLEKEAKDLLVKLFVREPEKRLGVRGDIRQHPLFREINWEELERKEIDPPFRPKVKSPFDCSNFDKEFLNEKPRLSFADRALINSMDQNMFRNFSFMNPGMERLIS
Chain of UniProt Q99755 (whole entry, looked up): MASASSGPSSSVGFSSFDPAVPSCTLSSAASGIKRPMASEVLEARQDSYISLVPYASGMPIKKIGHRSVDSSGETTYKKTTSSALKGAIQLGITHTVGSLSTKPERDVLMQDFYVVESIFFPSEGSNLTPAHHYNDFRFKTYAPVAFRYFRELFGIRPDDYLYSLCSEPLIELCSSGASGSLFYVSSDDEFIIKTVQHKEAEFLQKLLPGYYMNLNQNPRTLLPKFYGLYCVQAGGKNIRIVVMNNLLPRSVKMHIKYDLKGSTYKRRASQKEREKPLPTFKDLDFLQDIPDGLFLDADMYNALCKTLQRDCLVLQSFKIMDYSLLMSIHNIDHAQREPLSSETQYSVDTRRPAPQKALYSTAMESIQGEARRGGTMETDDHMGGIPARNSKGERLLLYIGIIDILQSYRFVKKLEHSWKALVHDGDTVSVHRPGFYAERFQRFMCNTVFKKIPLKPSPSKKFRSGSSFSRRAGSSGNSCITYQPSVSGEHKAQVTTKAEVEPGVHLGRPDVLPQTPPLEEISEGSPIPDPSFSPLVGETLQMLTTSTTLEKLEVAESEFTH
Chain of UniProt Q13164 (whole entry, looked up): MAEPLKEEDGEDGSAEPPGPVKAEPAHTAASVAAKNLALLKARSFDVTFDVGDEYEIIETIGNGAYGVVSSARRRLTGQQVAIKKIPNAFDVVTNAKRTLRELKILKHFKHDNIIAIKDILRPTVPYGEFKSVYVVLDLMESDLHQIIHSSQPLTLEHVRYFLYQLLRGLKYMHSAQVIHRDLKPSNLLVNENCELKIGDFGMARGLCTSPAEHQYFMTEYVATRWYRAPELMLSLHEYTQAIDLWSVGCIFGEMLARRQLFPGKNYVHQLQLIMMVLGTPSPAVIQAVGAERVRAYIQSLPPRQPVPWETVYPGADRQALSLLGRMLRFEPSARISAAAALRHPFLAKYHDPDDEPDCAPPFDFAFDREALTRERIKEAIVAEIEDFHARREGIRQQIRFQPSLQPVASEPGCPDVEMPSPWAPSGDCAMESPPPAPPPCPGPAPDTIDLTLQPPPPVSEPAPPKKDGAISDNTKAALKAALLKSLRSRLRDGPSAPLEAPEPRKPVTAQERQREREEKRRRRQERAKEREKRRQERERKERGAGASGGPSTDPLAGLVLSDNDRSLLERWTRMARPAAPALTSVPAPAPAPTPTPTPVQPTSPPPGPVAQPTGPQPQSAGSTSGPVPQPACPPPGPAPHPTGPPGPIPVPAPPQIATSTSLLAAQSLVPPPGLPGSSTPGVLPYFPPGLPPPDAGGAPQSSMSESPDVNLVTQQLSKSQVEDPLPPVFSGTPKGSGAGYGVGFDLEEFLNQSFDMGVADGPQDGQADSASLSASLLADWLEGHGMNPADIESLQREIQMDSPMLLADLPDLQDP
Chain of UniProt O60331 (whole entry, looked up): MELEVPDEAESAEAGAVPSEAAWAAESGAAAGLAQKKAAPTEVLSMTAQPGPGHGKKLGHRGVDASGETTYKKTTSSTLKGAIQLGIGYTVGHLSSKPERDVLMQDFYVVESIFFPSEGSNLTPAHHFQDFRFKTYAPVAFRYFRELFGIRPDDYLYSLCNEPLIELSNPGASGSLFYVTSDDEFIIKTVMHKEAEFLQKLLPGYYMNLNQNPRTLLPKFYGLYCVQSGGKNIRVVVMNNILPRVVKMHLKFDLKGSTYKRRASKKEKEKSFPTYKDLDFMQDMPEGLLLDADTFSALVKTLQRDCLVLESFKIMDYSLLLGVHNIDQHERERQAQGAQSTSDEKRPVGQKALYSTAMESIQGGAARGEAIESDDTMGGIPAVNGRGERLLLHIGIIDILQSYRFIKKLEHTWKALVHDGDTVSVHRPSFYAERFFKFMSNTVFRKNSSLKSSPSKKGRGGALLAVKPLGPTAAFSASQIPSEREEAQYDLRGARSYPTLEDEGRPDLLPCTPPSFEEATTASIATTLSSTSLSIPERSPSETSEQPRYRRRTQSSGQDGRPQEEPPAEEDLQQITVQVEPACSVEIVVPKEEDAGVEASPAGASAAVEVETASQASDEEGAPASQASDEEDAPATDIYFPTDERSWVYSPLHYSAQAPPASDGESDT
Chain of UniProt Q15349 (whole entry, looked up): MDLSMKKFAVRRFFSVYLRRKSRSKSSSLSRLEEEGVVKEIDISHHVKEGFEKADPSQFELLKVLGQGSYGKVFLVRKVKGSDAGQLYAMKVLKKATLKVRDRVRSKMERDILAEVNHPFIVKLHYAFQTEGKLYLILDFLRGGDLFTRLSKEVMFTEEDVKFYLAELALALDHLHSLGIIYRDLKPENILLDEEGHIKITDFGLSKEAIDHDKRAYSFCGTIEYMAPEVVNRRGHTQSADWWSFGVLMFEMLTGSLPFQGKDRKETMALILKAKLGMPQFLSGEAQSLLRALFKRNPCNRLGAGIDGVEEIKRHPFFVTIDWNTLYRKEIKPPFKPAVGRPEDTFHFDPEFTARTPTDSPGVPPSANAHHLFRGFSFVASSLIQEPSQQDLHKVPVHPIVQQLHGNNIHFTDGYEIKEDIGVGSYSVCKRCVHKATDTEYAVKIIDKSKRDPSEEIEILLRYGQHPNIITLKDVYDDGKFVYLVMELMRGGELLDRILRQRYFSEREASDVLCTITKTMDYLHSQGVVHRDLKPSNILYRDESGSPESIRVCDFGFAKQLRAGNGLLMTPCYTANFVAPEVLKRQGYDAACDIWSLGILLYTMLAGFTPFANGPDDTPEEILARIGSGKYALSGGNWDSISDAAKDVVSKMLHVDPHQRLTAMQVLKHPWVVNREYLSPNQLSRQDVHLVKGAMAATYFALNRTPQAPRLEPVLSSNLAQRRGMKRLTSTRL
Chain of UniProt P49840 (whole entry, looked up): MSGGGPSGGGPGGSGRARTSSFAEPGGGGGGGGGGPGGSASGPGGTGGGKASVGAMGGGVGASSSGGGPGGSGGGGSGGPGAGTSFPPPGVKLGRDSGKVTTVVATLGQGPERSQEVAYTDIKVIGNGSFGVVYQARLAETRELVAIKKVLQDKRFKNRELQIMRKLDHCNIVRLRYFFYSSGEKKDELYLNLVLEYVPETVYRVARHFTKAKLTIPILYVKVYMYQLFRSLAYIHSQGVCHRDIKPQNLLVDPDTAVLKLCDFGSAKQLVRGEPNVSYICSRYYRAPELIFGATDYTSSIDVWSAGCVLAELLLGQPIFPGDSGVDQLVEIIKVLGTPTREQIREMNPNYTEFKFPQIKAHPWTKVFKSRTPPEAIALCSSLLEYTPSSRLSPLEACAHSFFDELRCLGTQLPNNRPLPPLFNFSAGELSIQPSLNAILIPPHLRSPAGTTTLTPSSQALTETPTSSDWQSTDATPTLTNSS
Chain of UniProt Q00535 (whole entry, looked up): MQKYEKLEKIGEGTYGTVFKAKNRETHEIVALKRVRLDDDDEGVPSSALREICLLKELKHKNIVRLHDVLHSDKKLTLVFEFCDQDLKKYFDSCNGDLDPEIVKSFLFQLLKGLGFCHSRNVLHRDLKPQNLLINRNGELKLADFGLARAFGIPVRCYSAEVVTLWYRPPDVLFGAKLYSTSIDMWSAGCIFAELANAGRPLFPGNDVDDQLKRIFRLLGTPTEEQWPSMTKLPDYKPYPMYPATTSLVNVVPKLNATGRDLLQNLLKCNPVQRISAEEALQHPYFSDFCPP

Study 1
Target: CCND1, cyclin fold, Cln2 fusion (human)
Technique: yeast growth competition, sequencing
Medium: yeast
Setting: weak parent motif
Relative to: not given
Reading: higher = stronger binding
Parent: RB1 docking peptide (human); PKPLKKLRFDIEG; partner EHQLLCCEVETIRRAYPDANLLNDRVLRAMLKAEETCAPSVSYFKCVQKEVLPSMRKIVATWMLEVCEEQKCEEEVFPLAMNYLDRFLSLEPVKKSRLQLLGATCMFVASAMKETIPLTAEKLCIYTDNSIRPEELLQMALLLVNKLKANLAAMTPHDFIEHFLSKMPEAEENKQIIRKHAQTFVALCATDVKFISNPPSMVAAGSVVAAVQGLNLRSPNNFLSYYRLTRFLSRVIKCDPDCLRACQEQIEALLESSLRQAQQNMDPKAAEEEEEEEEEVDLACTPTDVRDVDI
Substitution | normalised enrichment score
D10T | -0.272
K2W | -0.357
L4N | 0.13
K6A | 0.742
I11S | 0.273
E12T | 0.11
E12P | -0.0141
R8M | 0.369

Study 2
Compound: CCC(=O)N[C@H]1CC[C@@H](C(=O)N(C)c2ccc(-c3nc4ccccc4o3)cc2)C1
Effect on: cell-free assay
Technique: competition with immobilised ligand
Tested at: 1 µM
target | remaining binding
Serine/threonine-protein kinase 38 (STK38, Homo sapiens, UniProt Q15208) | 77%
Cyclin-dependent kinase 5 (CDK5, Homo sapiens, UniProt Q00535) | 87%
Epidermal growth factor receptor (EGFR, Homo sapiens, UniProt P00533, L858R/T790M) | 100%
Protein kinase C theta type (PRKCQ, Homo sapiens, UniProt Q04759) | 84%
Ribosomal protein S6 kinase alpha-2, N-terminal kinase domain (RPS6KA2, Homo sapiens, UniProt Q15349) | 99%
Phosphatidylinositol 4-phosphate 5-kinase type-1 gamma (PIP5K1C, Homo sapiens, UniProt O60331) | 100%
Serine/threonine-protein kinase WNK1 (WNK1, Homo sapiens, UniProt Q9H4A3) | 100%
Phosphatidylinositol 4-phosphate 5-kinase type-1 alpha (PIP5K1A, Homo sapiens, UniProt Q99755) | 100%
Glycogen synthase kinase-3 alpha (GSK3A, Homo sapiens, UniProt P49840) | 100%
Phosphatidylinositol 4,5-bisphosphate 3-kinase catalytic subunit alpha isoform (PIK3CA, Homo sapiens, UniProt P42336) | 94%
Mitogen-activated protein kinase 7 (MAPK7, Homo sapiens, UniProt Q13164) | 78%

Study 3
Target: Receptor-interacting serine/threonine-protein kinase 2 (RIPK2, Homo sapiens, UniProt O43353)
Chain of UniProt O43353 (whole entry, looked up): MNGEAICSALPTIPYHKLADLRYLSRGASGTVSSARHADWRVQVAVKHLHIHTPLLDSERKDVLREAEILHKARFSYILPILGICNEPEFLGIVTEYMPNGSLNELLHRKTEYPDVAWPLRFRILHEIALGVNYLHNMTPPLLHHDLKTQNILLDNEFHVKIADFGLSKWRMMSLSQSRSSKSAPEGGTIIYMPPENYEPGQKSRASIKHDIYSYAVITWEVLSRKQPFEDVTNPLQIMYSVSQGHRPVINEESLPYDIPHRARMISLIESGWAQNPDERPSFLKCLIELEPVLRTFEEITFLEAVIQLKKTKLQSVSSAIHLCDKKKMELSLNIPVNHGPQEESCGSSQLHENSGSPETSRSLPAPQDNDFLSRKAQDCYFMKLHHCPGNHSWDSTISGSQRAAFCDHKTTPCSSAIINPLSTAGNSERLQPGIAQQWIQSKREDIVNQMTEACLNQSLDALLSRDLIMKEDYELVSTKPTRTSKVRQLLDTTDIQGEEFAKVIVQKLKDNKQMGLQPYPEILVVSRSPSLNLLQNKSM
Effect on: enzyme activity
Mode: inhibitor
Tested at: 0.5 µM
Relative to: control
Compound | remaining activity [%]
CCN(CC)CCNC(=O)c1c(C)[nH]c(/C=C2\C(=O)Nc3ccc(Cl)cc32)c1C | 84.1
N#Cc1c(NC(=O)c2cccc3ccccc23)sc2c1CCCC2 | 81.3
CN(C)C[C@H]1CCn2c(c(C3=C(c4cn(C)c5ccccc45)C(=O)NC3=O)c3ccccc32)C1 | 94.4
O=C1c2ccccc2-c2n[nH]c3cccc1c23 | 75.3
COc1cc2c(cc1OC)-c1[nH]nc(Nc3cccc(F)c3)c1C2 | 76.3
COc1cc2ncnc(Nc3ccc(O)c(Br)c3)c2cc1OC | 36.7
O=C1C(Cl)=C(N2C(=O)CCC2=O)C(=O)c2ccccc21 | 84.8
Cc1cc2ncc(-c3ccccc3)nc2cc1C | 98.3
c1ccc(-c2[nH]ncc2-c2ccnc3ccccc23)nc1 | 64.7
Nc1cccc(-c2cc3c(Oc4cccc(O)c4)ncnc3[nH]2)c1 | 30.5
N#C/C(=C\c1ccc(O)c(O)c1)C(=O)NCc1ccccc1 | 101

Study 4
Target: ABI1, truncated, D143A, DHFR fusion (Arabidopsis thaliana, UniProt P49597)
Technique: DHFR PCA, dose-response
Medium: yeast
Setting: Hill fit, mean, not affinity
With: (+)-ABA, dose series
Reading: lower = more sensitive
Parent: PYL1, truncated, DHFR fusion (Arabidopsis thaliana, UniProt Q8VZS8); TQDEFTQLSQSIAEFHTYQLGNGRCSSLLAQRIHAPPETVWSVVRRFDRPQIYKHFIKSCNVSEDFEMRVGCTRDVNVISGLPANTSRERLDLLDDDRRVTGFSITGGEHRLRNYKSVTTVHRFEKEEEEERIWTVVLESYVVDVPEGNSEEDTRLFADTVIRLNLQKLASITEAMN
Substitution | ABA EC50
N177C | 0.791 µM
H122I | 218 µM
E147W | 6.19 µM
L112T | 952 µM
E174V | 14.9 µM
D159S | 11.3 µM
T86A | 10.3 µM
A170M | 10.4 µM

Excerpt of the above (study 4):
Substitution | ABA EC50
D159S | 11.3 µM
T86A | 10.3 µM
A170M | 10.4 µM
